Experimental data from different studies.
Compare with care: the assays were run in different laboratories.
OPRD1: Delta-type opioid receptor (OPRD1, Homo sapiens, UniProt P41143)
Sequence of UniProt P41143 (whole entry, looked up): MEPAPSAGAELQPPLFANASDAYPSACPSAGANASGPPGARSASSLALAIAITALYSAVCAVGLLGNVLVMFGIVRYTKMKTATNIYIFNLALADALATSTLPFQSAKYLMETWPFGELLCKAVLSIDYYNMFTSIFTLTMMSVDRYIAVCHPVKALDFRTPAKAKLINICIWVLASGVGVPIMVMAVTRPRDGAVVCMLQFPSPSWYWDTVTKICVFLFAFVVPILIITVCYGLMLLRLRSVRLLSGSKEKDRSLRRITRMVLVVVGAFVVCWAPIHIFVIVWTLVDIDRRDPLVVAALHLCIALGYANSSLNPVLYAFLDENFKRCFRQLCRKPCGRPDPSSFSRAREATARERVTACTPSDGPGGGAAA

CC(C)[C@H]1CC[C@H](N2CC[C@@](C)(c3cccc(O)c3)[C@@H](C)C2)CC1  Ki (OPRD1; ligand displacement, radioligand): 105 nM
CCCCCCNC(=O)c1ccc(C[C@H](N)C(=O)N2Cc3ccccc3C[C@H]2C(=O)N[C@@H](Cc2ccccc2)C(=O)N[C@@H](Cc2ccccc2)C(=O)O)cc1  EC50 (OPRD1; GTPγS binding, agonist, radiometric): 0.103 nM
N=C(N)NCCCCCCCN1CC[C@]23c4c5ccc(O)c4O[C@H]2c2nc4ccccc4cc2C[C@@]3(O)[C@H]1C5  EC50 (Delta-type opioid receptor, with β-arrestin1 (OPRD1, Homo sapiens, UniProt P41143); human cells): 600 nM
CC(C)C[C@H](NC(=O)[C@H](Cc1ccccc1)NC(=O)CNC(=O)CN(Cc1ccccc1[N+](=O)[O-])C(=O)[C@@H](N)Cc1ccc(O)cc1)C(=O)O  EC50 (OPRD1; reporter gene (SEAP), agonist; HEK-293T cells; caged form, no photolysis): 1850 nM
N[C@@H](Cc1ccc(C(=O)NCCc2ccc3ccccc3c2)cc1)C(=O)N1Cc2ccccc2C[C@H]1C(=O)N[C@@H](Cc1ccccc1)C(=O)N[C@@H](Cc1ccccc1)C(=O)O  EC50 (OPRD1; GTPγS binding, agonist, radiometric): 0.475 nM
CCC(=O)N(CC1CCCCN1C(=O)CCNC(=O)[C@H](Cc1ccccc1)NC(=O)CNC(=O)[C@@H](C)NC(=O)[C@@H](N)Cc1c(C)cc(O)cc1C)c1ccccc1 (stereo partly shown)  Ki (OPRD1; cell-free assay): 1.2 nM
Oc1cccc(CCN(CCc2ccccc2)CC2CCCC2)c1  Ki (OPRD1; ligand displacement, radioligand; cell membranes): 1700 nM
C[C@@H](NC(=O)[C@@H](N)Cc1ccc(O)cc1)C(=O)NCC(=O)N[C@@H](Cc1ccccc1)C(=O)Nc1ccccc1NC(=O)[C@H](Cc1ccccc1)NC(=O)CNC(=O)[C@@H](C)NC(=O)[C@@H](N)Cc1ccc(O)cc1  EC50 (OPRD1; GTPγS binding, agonist; cell membranes): 1.7 nM
NCCCCCCCCN1CCC23c4c5ccc(O)c4OC2c2nc4ccccc4cc2CC3(O)C1C5 (stereo not shown)  EC50 (Delta-type opioid receptor, with β-arrestin2 (OPRD1, Homo sapiens, UniProt P41143); human cells): 170 nM
CCC(=O)N(CC1CCCCN1C(=O)[C@H](Cc1ccccc1)NC(=O)CNC(=O)[C@@H](C)NC(=O)[C@@H](N)Cc1c(C)cc(O)cc1C)c1ccccc1 (stereo partly shown)  Ki (OPRD1; cell-free assay): 0.2 nM
C[C@@H](NC(=O)[C@@H](N)Cc1ccc(O)cc1)C(=O)NCC(=O)N[C@@H](Cc1ccc(F)cc1)C(=O)N1CCN(C(=O)[C@H](Cc2ccc(F)cc2)NC(=O)CNC(=O)[C@@H](C)NC(=O)[C@@H](N)Cc2ccc(O)cc2)CC1  Ki (OPRD1; ligand displacement, radioligand; cell membranes): 0.09 nM
N[C@@H](Cc1ccc(C(=O)NCCc2cccc3ccccc23)cc1)C(=O)N1Cc2ccccc2C[C@H]1C(=O)N[C@@H](Cc1ccccc1)C(=O)N[C@@H](Cc1ccccc1)C(=O)O  EC50 (OPRD1; GTPγS binding, agonist, radiometric): 1.03 nM
CCCC[C@@H]1NC(=O)[C@H](Cc2ccccc2)NC(=O)CNC(=O)[C@H](NC(=O)[C@@H](N)Cc2ccc(O)cc2)C(C)(C)SSC(C)(C)[C@@H](C(=O)N[C@@H](Cc2c[nH]c3ccccc23)C(=O)NCc2cc(C(F)(F)F)cc(C(F)(F)F)c2)NC(=O)[C@@H]2CCCN2C1=O  IC50 (OPRD1; ligand displacement, radioligand; cell membranes): 316 nM
Cc1cc(O)cc(C)c1C[C@H](N)C(=O)N1Cc2ccccc2C[C@H]1C(=O)NCC(=O)NCc1ccccc1  IC50 (OPRD1; GTPγS binding, antagonist, radiometric): 1.3 nM
C[C@H]1[C@H]2CCC[C@]1(c1cccc(O)c1)CCN2CCc1ccccc1  Ki (OPRD1; ligand displacement, radioligand; cell membranes): 140 nM
C[C@@H](NC(=O)[C@@H](N)Cc1ccc(O)cc1)C(=O)NCC(=O)N[C@@H](Cc1ccc(F)cc1)C(=O)Nc1ccccc1NC(=O)[C@H](Cc1ccc(F)cc1)NC(=O)CNC(=O)[C@@H](C)NC(=O)[C@@H](N)Cc1ccc(O)cc1  EC50 (OPRD1; GTPγS binding, agonist; cell membranes): 0.56 nM

Repeated from above:
CCCC[C@@H]1NC(=O)[C@H](Cc2ccccc2)NC(=O)CNC(=O)[C@H](NC(=O)[C@@H](N)Cc2ccc(O)cc2)C(C)(C)SSC(C)(C)[C@@H](C(=O)N[C@@H](Cc2c[nH]c3ccccc23)C(=O)NCc2cc(C(F)(F)F)cc(C(F)(F)F)c2)NC(=O)[C@@H]2CCCN2C1=O  IC50 (OPRD1; ligand displacement, radioligand; cell membranes): 316 nM
Cc1cc(O)cc(C)c1C[C@H](N)C(=O)N1Cc2ccccc2C[C@H]1C(=O)NCC(=O)NCc1ccccc1  IC50 (OPRD1; GTPγS binding, antagonist, radiometric): 1.3 nM
C[C@H]1[C@H]2CCC[C@]1(c1cccc(O)c1)CCN2CCc1ccccc1  Ki (OPRD1; ligand displacement, radioligand; cell membranes): 140 nM
